Experimental data from different studies.
Compare with care: the assays were run in different laboratories.
Target: Cannabinoid receptor 1 (CNR1, Homo sapiens, UniProt P21554)
Sequence of UniProt P21554 (whole entry, looked up): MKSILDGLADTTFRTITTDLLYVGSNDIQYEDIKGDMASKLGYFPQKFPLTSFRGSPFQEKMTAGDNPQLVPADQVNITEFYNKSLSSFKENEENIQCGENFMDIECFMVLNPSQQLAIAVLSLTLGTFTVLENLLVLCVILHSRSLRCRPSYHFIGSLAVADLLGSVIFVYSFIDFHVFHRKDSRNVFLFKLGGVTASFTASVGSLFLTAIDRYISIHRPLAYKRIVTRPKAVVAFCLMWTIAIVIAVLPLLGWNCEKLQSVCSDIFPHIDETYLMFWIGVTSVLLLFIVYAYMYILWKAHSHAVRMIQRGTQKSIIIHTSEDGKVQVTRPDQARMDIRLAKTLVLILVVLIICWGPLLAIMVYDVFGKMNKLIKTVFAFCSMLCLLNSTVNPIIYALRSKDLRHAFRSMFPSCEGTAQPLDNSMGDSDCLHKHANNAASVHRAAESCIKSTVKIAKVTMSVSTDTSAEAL

`C[Si](C)(C)C[C@@H](CN)CC(=O)O` has an inhibition of 9% (ligand displacement, radioligand; 75 µM).
With `CCOC(=O)[C@](CC)(CCCSCCOCCOCCN)NC(=O)c1ccc(C2CC2)c(Cc2ccc(F)cc2)n1` the Emax was 84% (cAMP, agonist).
`CO[C@@H](C)c1c(NC(=O)Nc2cnc(-n3nccn3)c(C(F)(F)F)c2)cnc2sc(C)nc12` gave an inhibition of -9.5% (ligand displacement, radioligand; 10 µM).
For `C[Si]1(C[C@H](CN)CC(=O)O)CCCC1`, the inhibition was -6% (ligand displacement, radioligand; 70 µM).
`COCC(=O)N1CCc2cc(-c3csc(NC(=O)c4cc(OC)cc(OC)c4)n3)ccc21` has an inhibition of 8% (cell-free assay; 10 µM).
For `CCOC(=O)C(CC)(CCCSCCCCCCNc1ccc([N+](=O)[O-])c2nonc12)NC(=O)c1ccc(C2CC2)c(Cc2ccc(F)cc2)n1` (stereo not drawn), the Emax was 122% (cAMP, agonist).
With `COc1ncc2nc(C)n(Cc3ncc(S(N)(=O)=O)cc3F)c2c1-c1ccccc1` the activation was 1.96% (agonist, cell-based; 10 µM).
For `COc1ccc(S(=O)(=O)N2CCc3ccccc3C2)cc1N1CCN(C(=O)c2ccc(F)cc2C(F)(F)F)CC1`, the inhibition was 19.4% (ligand displacement, radioligand; 1 µM).
The inhibition of `O=C1c2sc(-c3ccc(N4CCC(F)C4)nc3F)nc2CCN1c1cccnc1` (stereo not drawn) is reported as -5% (ligand displacement, radioligand; 1 µM).
`CNC(=O)C[C@H](Cc1ccc(C#N)cc1)NC(=O)c1cc(-c2ccc(CN[C@H](C)c3ccc(C)cc3)o2)ccc1Cl` has an inhibition of 2% (agonist response, antagonist; human cells; 10 µM, CB1 antagonist).
The inhibition of `COc1ccc(C#CC2=C[C@H]3C[C@@]4(OC(=O)C=C24)[C@H]2CC[C@H](C(OC)OC)N32)cc1` is reported as 13% (ligand displacement, radioligand; 10 µM).
For `CCOC(=O)C(CC)(CCCSCCOCCN)NC(=O)c1ccc(C2CC2)c(Cc2ccc(F)cc2)n1` (stereo not drawn), the Emax was 52% (cAMP, agonist).
`Cn1ccc2cc(-n3c(=O)[nH]c4sc5c(c4c3=O)CCCC5)ccc21` has an inhibition of 12% (cell-free assay, radioligand; 10 µM).
`CCOC(=O)C(CC)(CCCSCCOCCOCCOCCN)NC(=O)c1ccc(C2CC2)c(Cc2ccc(F)cc2)n1` (stereo not drawn) gave an Emax of 72% (cAMP, agonist).
With `Cc1[nH]nc2c1N=C(c1ccccc1Cl)c1cnc(N3CCOCC3)cc1N2` the inhibition was 41% (cell-free assay; 10 µM).
